Assay results from different studies.
Lines come from different studies, so protocols differ. Values joined by “and” are separate records of one study, mostly repeats; a detail may differ. ± gives the spread as reported.
Target: Cholinesterase (BCHE, Equus caballus, UniProt P81908)
Sequence of UniProt P81908 (whole entry, looked up): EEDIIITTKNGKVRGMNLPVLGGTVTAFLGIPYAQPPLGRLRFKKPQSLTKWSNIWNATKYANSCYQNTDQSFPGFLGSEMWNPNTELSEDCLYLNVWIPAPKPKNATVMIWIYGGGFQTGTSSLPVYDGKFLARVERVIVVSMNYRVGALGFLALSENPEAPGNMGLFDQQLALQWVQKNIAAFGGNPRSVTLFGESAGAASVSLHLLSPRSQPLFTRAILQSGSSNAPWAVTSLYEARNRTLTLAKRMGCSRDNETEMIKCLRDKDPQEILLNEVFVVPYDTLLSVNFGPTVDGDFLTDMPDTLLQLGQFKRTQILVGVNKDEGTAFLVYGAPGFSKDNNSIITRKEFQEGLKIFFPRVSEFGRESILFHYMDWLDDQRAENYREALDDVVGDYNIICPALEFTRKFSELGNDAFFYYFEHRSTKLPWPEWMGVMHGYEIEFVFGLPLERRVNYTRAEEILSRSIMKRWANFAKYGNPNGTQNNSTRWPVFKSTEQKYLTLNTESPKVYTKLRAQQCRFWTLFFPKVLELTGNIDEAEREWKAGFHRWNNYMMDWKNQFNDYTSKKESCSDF

`COc1ccc2cc(/C=N/C3CCN(Cc4ccccc4)CC3)ccc2c1` has an IC50 of greater than 10 µM (inhibitor).
`COc1ccccc1/C=N/NC(=O)COc1ccc(Sc2ccc(OCC(=O)N/N=C/c3ccccc3OC)cc2)cc1` has an IC50 of 110 µM (enzyme activity, inhibitor, Ellman).
`CCCCCC(=O)Oc1ccc2c(OC(=O)CCCCC)c3ccccc3cc2c1O` gave an IC50 of 5.3 µM and 5.34 µM (enzyme activity, inhibitor, Ellman; pH 8).
The IC50 of `COc1cc2c(cc1OC)-c1c(C)c3cc(OC)c(OC)cc3c[n+]1CC2` is reported as 32.8 ± 0.34 µM (enzyme activity, inhibitor, Ellman).
With `C/C(=C\CO)CCCC(C)CCCC(C)CCCC(C)C` (stereo not shown) the IC50 was 80.6 µM (enzyme activity, inhibitor).
With `CC(C)c1ccc(/C=N/NC(=O)COc2ccc(Sc3ccc(OCC(=O)N/N=C/c4ccc(C(C)C)cc4)cc3)cc2)cc1` the IC50 was 120 µM (enzyme activity, inhibitor, Ellman).
The IC50 of `COc1ccc2c(c1OC)CC1c3c(cc4c(c3-2)OCO4)CC[N+]1(C)[O-]` (single isomer, unassigned; (-)) is reported as 150.6 ± 0.54 µM (enzyme activity, inhibitor, Ellman).
With `COc1cc(Br)cc(/C=N/N2C(=O)c3ccccc3NC2c2cc(Br)cc(OC)c2O)c1O` (stereo not shown) the IC50 was 11.9 µM (enzyme activity, inhibitor, Ellman).
The IC50 of `COc1c(OC2OC(CO)C(O)C(O)C2O)cc2c3c1-c1ccccc1CC3NCC2` (single isomer, unassigned; (-)) is reported as 175.6 ± 1.45 µM (enzyme activity, inhibitor, Ellman).
For `CCN1CCN(C(=NNc2ccc3c(C)cc(=O)oc3c2)C(C)=O)CC1`, the IC50 was 216 µM (enzyme activity, inhibitor, Ellman; pH 8).
`O=C(NCCCCCn1ccc2ccc(F)cc21)Oc1ccccc1F` gave an IC50 of 0.74 µM (enzyme activity, inhibitor, HPLC).
`COc1cc2c(cc1OC)[C@@H]1Cc3ccc(OC)c(OC)c3C[N+]1(C)CC2` (stereo partly shown) has an IC50 of 234.3 ± 1.08 µM (enzyme activity, inhibitor, Ellman).
For `COC(=O)C1=CO[C@@H](O)[C@@H]2C(Cn3cc(-c4ccc(OC)cc4)nn3)=CC[C@H]12`, the IC50 was 109.1 ± 0.61 µM (horse serum enzyme).
For `CCCCCn1c(SC(C(=O)NCc2ccccc2)C(=O)NCc2ccccc2)nc2cc(C(=O)Nc3cccc(C(F)(F)F)c3)ccc2c1=O`, the IC50 was 21.7 µM (inhibitor).
`CC(=O)C1=C(C)NC(SCCCSc2nnc(Cc3ccccc3Nc3c(Cl)cccc3Cl)n2-c2ccc(Cl)c(Cl)c2)=NC1c1ccc(C)cc1` (stereo not shown) gave an IC50 of 36 µM (enzyme activity, inhibitor, Ellman).
The IC50 of `O=C(/C=C/c1cccc(F)c1)c1cc2ccccc2oc1=O` is reported as 30 µM (enzyme activity, inhibitor).
For `O=C(/C=C/c1ccc(O)cc1)OC[C@H]1O[C@@H](Oc2c(-c3ccc(O)cc3)oc3cc(O)cc(O)c3c2=O)[C@H](O)[C@@H](OC(=O)/C=C/c2ccc(O)cc2)[C@@H]1O`, the IC50 was 85.2 µM (enzyme activity, inhibitor, Ellman).
The IC50 of `CC(=O)C1=NN(c2ccc3c(C)cc(=O)oc3c2)C(=O)C2CCCN12` (stereo not shown) is reported as 46.7 µM (enzyme activity, inhibitor, Ellman; pH 8).
For `O=C(NCCCCCn1ccc2ccc(F)cc21)Oc1cccc(F)c1`, the IC50 was 1.5 µM (enzyme activity, inhibitor, HPLC).
The IC50 of `COc1cc(/C=N/NC(=O)COc2ccc(Sc3ccc(OCC(=O)N/N=C/c4ccc(O)c(OC)c4)cc3)cc2)ccc1O` is reported as 65.7 µM (enzyme activity, inhibitor, Ellman).
`O=C(/C=C/c1ccc(Br)cc1)c1cc2ccccc2oc1=O` has an IC50 of greater than 40 µM (enzyme activity, inhibitor).
`COc1ccc(-c2c(C#N)c(N)nc3c2CCc2nc4c(cc2-3)c(C)nn4-c2ccccc2)cc1` has an IC50 of greater than 818 µM (enzyme activity, inhibitor, Ellman).
With `Cc1nc2ccc(NCc3cn(CCCCCCOC4=CC(=O)c5ccccc5C4=O)nn3)cc2nc1C` the IC50 was 3.8 µM (enzyme activity, inhibitor, Ellman).
For `COc1ccc2c(c1OC)C(O)C1c3c(cc4c(c3-2)OCO4)CCN1C` (stereo not shown), the IC50 was 22.47 ± 0.1 µM (enzyme activity, inhibitor, Ellman).
`CC(=O)Oc1ccc2c(O)c3ccccc3cc2c1O` has an IC50 of 85.2 µM (enzyme activity, inhibitor, Ellman; pH 8).
For `CCN(CCCCOc1ccc(CCC(=O)N2CCC(Cc3ccccc3)CC2)cc1OC)Cc1ccccc1`, the IC50 was 0.049 µM (enzyme activity, inhibitor, Ellman).
With `O=C(COc1ccc(Sc2ccc(OCC(=O)N/N=C/c3ccccc3Cl)cc2)cc1)N/N=C/c1ccccc1Cl` the IC50 was 113 µM (enzyme activity, inhibitor, Ellman).
The IC50 of `CC(=O)C(=NNc1ccc2c(C)cc(=O)oc2c1)N1CCN(CCO)CC1` is reported as 233 µM (enzyme activity, inhibitor, Ellman; pH 8).
With `CC(=O)Oc1ccc2c(OC(C)=O)c3ccccc3cc2c1OC(C)=O` the IC50 was 69.2 µM (enzyme activity, inhibitor, Ellman; pH 8).
With `COc1cc(/C=N/NC(=O)COc2ccc(Sc3ccc(OCC(=O)N/N=C/c4cc(OC)c(OC)c(OC)c4)cc3)cc2)cc(OC)c1OC` the IC50 was 44.7 µM (enzyme activity, inhibitor, Ellman).
`COC(=O)C1=CO[C@@H](OC(C)=O)[C@@H]2C(Cn3cc(CCCN4C(=O)c5ccccc5C4=O)nn3)=CC[C@H]12` gave an IC50 of 418 µM and 419 µM (horse serum enzyme).
The IC50 of `O=C(/C=C/c1ccc(F)cc1)c1cc2ccccc2oc1=O` is reported as greater than 40 µM (enzyme activity, inhibitor).
`O=c1oc2c(CNCCc3cccc(F)c3)c(O)ccc2c2c1CCC2` has an IC50 of 24 µM (enzyme activity, inhibitor, Ellman).
`CC(=O)C(=NNc1ccc2c(C)cc(=O)oc2c1)N1CCCCC1` has an IC50 of 1.2 µM (enzyme activity, inhibitor, Ellman; pH 8).
`COC(=O)C1=CO[C@@H](OC(C)=O)[C@@H]2C(Cn3cc(CN4C(=O)c5ccccc5C4=O)nn3)=CC[C@H]12` gave an IC50 of 274 µM (horse serum enzyme).
`COc1ccc(O)c(/C=N/N2C(=O)c3ccccc3NC2c2cc(OC)ccc2O)c1` (stereo not shown) has an IC50 of 4 µM (enzyme activity, inhibitor, Ellman).
`Cc1nc2ccc(NCc3cn(CCCCOC4=CC(=O)c5ccccc5C4=O)nn3)cc2nc1C` gave an IC50 of greater than 100 µM (enzyme activity, inhibitor, Ellman).
The IC50 of `COC(=O)CC1NC(C(C)=O)=NN(c2ccc3c(C)cc(=O)oc3c2)C1=O` (stereo not shown) is reported as 1.1 µM (enzyme activity, inhibitor, Ellman; pH 8).
`O=C(/C=C/c1ccc(Cl)cc1)c1cc2ccccc2oc1=O` has an IC50 of greater than 40 µM (enzyme activity, inhibitor).
The IC50 of `COC(=O)C1=CO[C@@H](O)[C@@H]2C(Cn3cc(C(O)(c4ccccc4)c4ccccc4)nn3)=CC[C@H]12` is reported as 54.3 ± 0.34 µM (horse serum enzyme).
The IC50 of `C=CCN1CCC(N2CCCC2=O)c2cc(C)ccc21` (stereo not shown) is reported as less than 32 µM (enzyme activity, inhibitor, Ellman).
With `COCCN1COc2c(cc3c4c(c(=O)oc3c2C)CCC4)C1` the IC50 was 147 µM (enzyme activity, inhibitor, Ellman).
With `O=C1C=C(OCCCn2cc(CNc3ccc4nccnc4c3)nn2)C(=O)c2ccccc21` the IC50 was 15.4 µM (enzyme activity, inhibitor, Ellman).
`O=C(COc1ccc(Sc2ccc(OCC(=O)N/N=C/c3ccc(O)cc3O)cc2)cc1)N/N=C/c1ccc(O)cc1O` has an IC50 of 84.6 µM (enzyme activity, inhibitor, Ellman).
`Cc1nc2ccc(NCc3cn(CCCCCCCCOC4=CC(=O)c5ccccc5C4=O)nn3)cc2nc1C` has an IC50 of 1.7 µM (enzyme activity, inhibitor, Ellman).
With `CCc1nc([N+](=O)[O-])c(N2CCN(C(=NNc3ccc4c(C)cc(=O)oc4c3)C(C)=O)CC2)n1Cc1ccccc1` the IC50 was 0.002 µM (enzyme activity, inhibitor, Ellman).
`O=C1CCCC2=C1C(c1c[nH]c3ccccc13)n1c(sc(=Cc3c[nH]c4ccccc34)c1=O)=N2` (stereo not shown) has an IC50 of 17.2 µM (enzyme activity, inhibitor, Ellman).
With `O=C(COc1ccc(Sc2ccc(OCC(=O)N/N=C/c3ccc(Cl)cc3)cc2)cc1)N/N=C/c1ccc(Cl)cc1` the IC50 was 14.7 µM (enzyme activity, inhibitor, Ellman).
With `O=C(Cc1ccccc1Nc1c(Cl)cccc1Cl)NNC(=S)Nc1ccc(Cl)c(Cl)c1` the IC50 was 29.5 µM (enzyme activity, inhibitor, Ellman).
With `O=C(COc1ccc(Sc2ccc(OCC(=O)N/N=C/c3ccccc3O)cc2)cc1)N/N=C/c1ccccc1O` the IC50 was 78.9 µM (enzyme activity, inhibitor, Ellman).
For `COc1cccc2c1CC1c3c(cc4c(c3-2)OCO4)CCN1C` (single isomer, unassigned; (-)), the IC50 was 2.8 ± 0.07 µM (enzyme activity, inhibitor, Ellman).
`Cc1cc(O)c2c(c1)C(=O)c1c(O)ccc(O)c1C2=O` has an IC50 of 2.99 µM (enzyme activity, inhibitor, Ellman).
For `CC(C)=CCCC(C)=CCCC(C)=CCc1c(O)cc(O)c(CC=C(C)C)c1-c1cc2ccc(O)cc2o1`, the IC50 was greater than 200 µM (enzyme activity, inhibitor).
For `COc1cc2c(cc1OC(C)=O)CCN1Cc3c(ccc(OC(C)=O)c3OC)C[C@@H]21`, the IC50 was 63.1 ± 0.83 µM (enzyme activity, inhibitor, Ellman).
`C=CCN1CCC(N2CCCC2=O)c2cc(CC)ccc21` (stereo not shown) gave an IC50 of less than 32 µM (enzyme activity, inhibitor, Ellman).

For quick reference, copied from above:
`O=C(/C=C/c1ccc(Cl)cc1)c1cc2ccccc2oc1=O` has an IC50 of greater than 40 µM (enzyme activity, inhibitor).
The IC50 of `COC(=O)C1=CO[C@@H](O)[C@@H]2C(Cn3cc(C(O)(c4ccccc4)c4ccccc4)nn3)=CC[C@H]12` is reported as 54.3 ± 0.34 µM (horse serum enzyme).
The IC50 of `C=CCN1CCC(N2CCCC2=O)c2cc(C)ccc21` (stereo not shown) is reported as less than 32 µM (enzyme activity, inhibitor, Ellman).
With `COCCN1COc2c(cc3c4c(c(=O)oc3c2C)CCC4)C1` the IC50 was 147 µM (enzyme activity, inhibitor, Ellman).
With `O=C1C=C(OCCCn2cc(CNc3ccc4nccnc4c3)nn2)C(=O)c2ccccc21` the IC50 was 15.4 µM (enzyme activity, inhibitor, Ellman).
`O=C(COc1ccc(Sc2ccc(OCC(=O)N/N=C/c3ccc(O)cc3O)cc2)cc1)N/N=C/c1ccc(O)cc1O` has an IC50 of 84.6 µM (enzyme activity, inhibitor, Ellman).
